Published values of several laboratories.
± gives the spread as reported.
U2AF2: U2AF2 148-342 (Homo sapiens, UniProt P26368)
Sequence of UniProt P26368 (whole entry, looked up): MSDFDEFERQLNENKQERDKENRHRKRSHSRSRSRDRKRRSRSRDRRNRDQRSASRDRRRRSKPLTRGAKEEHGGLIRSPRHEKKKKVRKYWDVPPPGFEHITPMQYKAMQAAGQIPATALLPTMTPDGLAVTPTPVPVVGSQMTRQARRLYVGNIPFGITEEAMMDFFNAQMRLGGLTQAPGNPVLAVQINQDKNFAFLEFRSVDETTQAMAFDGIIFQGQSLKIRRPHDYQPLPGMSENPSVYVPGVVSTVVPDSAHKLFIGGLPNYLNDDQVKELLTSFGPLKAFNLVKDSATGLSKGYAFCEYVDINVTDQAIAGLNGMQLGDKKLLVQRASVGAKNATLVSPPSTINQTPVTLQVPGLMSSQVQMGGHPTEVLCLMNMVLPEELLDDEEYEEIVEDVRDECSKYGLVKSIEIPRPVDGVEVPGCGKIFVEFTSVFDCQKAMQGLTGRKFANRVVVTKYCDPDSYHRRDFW
B1: human RAB10; sequence looked up; chain MAKKTYDLLFKLLLIGDSGVGKTCVLFRFSDDAFNTTFISTIGIDFKIKTVELQGKKIKLQIWDTAGQERFHTITTSYYRGAMGIMLVYDITNGKSFENISKWLRNIDEHANEDVERMLLGNKCDMDDKRVVPKGKGEQIAREHGIRFFETSAKANINIEKAFLTLAEDILRKTPVKEPNSENVDISSGGGVTGWKSKCC
Sequence of UniProt P29055 (whole entry, looked up): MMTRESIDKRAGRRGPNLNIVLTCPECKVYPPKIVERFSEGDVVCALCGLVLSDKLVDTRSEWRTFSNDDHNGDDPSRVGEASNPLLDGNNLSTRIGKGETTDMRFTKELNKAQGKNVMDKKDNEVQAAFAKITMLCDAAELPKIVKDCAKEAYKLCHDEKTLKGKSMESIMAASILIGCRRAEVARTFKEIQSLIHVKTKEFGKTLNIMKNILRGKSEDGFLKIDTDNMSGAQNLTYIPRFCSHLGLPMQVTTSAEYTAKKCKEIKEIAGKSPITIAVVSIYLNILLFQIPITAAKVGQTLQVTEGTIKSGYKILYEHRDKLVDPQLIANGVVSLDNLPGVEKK

Molecule = insulin; assay = LC-MS/MS; system = prepared human sample; conditions = one freeze-thaw cycle, low pool; measurement = concentration; value = 0.00033 µg/mL
Molecule = UUACUCUUU (ssRNA); tested on = U2AF2; assay = sequencing of bound RNA; system = RNA; conditions = motif only; measurement = Kd; value = 2.15 µM
Molecule = human ME2 Q51H; assay = enzyme activity, substrate; system = recombinant enzyme; conditions = pH 7.4, added: fumarate 3 mM; measurement = K0.5; value = 2.71 ± 0.18 mM
Molecule = human USP10; tested on = CYB5R4 knockout human cells; assay = PP4 interaction, 3xFLAG-PP4C IP-MS; conditions = concentration not given; how to read = reference: CYB5R4 KO over parental; measurement = log2 fold change; value = -2.32
Molecule = liraglutide; system = Wistar rat, female, diet-induced obese, blood, fasted; conditions = subcutaneous, dose not given, after 4 weeks treatment; measurement = serum ALT; value = 24 ± 1.8 U/L
Molecule = adrenomedullin; assay = RP-HPLC; system = HALO C18 column; conditions = 25 µM, acetic acid/acetonitrile, 25 min gradient; measurement = retention time; value = 7.44 min
Molecule = ATGATTACTAATTCTTAACATTCGAGTTCAATCTCTCAAGTCAATCGGTCC (dsDNA; 5'-amino-C6 primer); tested on = SUA7 full length assumed (Saccharomyces cerevisiae, UniProt P29055); assay = array; system = double-stranded DNA, one strand shown; conditions = TFIIB alone; measurement = Kd; value = 0.00284 ± 0.0004 µM
Molecule = rituximab; system = relapsed iNHL patients; conditions = dose not given, after third infusion; measurement = serum concentration; value = 324 µg/mL
Molecule = human ME2 Q101T; assay = enzyme activity, substrate; system = recombinant enzyme; conditions = pH 7.4, added: no fumarate; measurement = K0.5; value = 11.1 ± 0.24 mM
Molecule = B1 (human RAB10); tested on = CYB5R4 knockout human cells; assay = PP4 interaction, 3xFLAG-PP4C IP-MS; conditions = concentration not given; how to read = reference: CYB5R4 KO over parental; measurement = log2 fold change; value = -0.13
Molecule = insulin aspart; system = human type 1 diabetes pump-treated, plasma; conditions = subcutaneous pump, two-compartment model; measurement = Tmax; value = 1.1 h
Molecule = durvalumab; system = human, plasma; conditions = intravenous, 1500 mg, cycle 4 day 1, geometric mean, added: adavosertib 250 mg once daily; measurement = Cmax; value = 470 µg/mL
Molecule = insulin; assay = ELISA; system = Sprague-Dawley rat, serum; conditions = subcutaneous, 5 IU/kg; measurement = time to return to lowest serum level; value = 4 h
Molecule = human ME2 D102S; assay = enzyme activity, substrate; system = recombinant enzyme; conditions = pH 7.4, added: no fumarate; measurement = K0.5; value = 7.62 ± 0.14 mM
Molecule = insulin aspart; assay = ELISA; system = human, adults with type 1 diabetes, up to 35 years, serum; conditions = subcutaneous, 0.2 U/kg; measurement = tmax; value = 0.983 h
Molecule = ACEQNPIYWARYADWLFTTPLLLLDLALLVDADEGT; assay = ex vivo fluorescence imaging; system = peptide, BALB/c mice, 4T1 tumour-bearing, muscle; conditions = intravenous, 5 nmol, 48 h post-injection; how to read = higher = more uptake; measurement = mean fluorescence intensity; value = 194 ± 18.1 a.u.
Molecule = human ME2 I99V; assay = enzyme activity, substrate; system = recombinant enzyme; conditions = pH 7.4, added: no fumarate; measurement = K0.5; value = 15.3 ± 0.47 mM
Molecule = Neuropeptide Y; assay = RP-HPLC; system = HALO C18 column; conditions = 25 µM, formic acid/acetonitrile, 25 min gradient; measurement = retention time; value = 7.86 min
Molecule = ACEEQNPWARYLEWLFPTETLLLEL; assay = ex vivo fluorescence imaging; system = peptide, BALB/c mice, 4T1 tumour-bearing, liver; conditions = intravenous, 5 nmol, 48 h post-injection; how to read = higher = more uptake; measurement = mean fluorescence intensity; value = 194 ± 20.6 a.u.
Molecule = pegcetacoplan; assay = item: investigations; system = patients with PNH; conditions = dose not given, phase Ib trial; measurement = number of TEAEs; value = 22
Molecule = insulin aspart; assay = ELISA, item: total insulin aspart; system = human, type 1 diabetes, serum; conditions = subcutaneous, dose not given, least squares mean; measurement = Cmax; value = 0.553 nM
Molecule = insulin icodec; system = human, mild renal impairment, serum; conditions = subcutaneous, 1.5 U/kg single dose; how to read = reference: normal renal function; measurement = AUC(0-inf) increase; value = 12%
Molecule = UUCCAACUU (ssRNA); tested on = U2AF2; assay = sequencing of bound RNA; system = RNA; conditions = motif only; measurement = Kd; value = 3.62 µM
Molecule = human ME2 T60S; assay = enzyme activity, substrate; system = recombinant enzyme; conditions = pH 7.4, added: fumarate 3 mM; measurement = K0.5; value = 3.19 ± 0.31 mM
Molecule = ACDDQNPWRAYLDLLFPTDTLLLDLLW; assay = ex vivo fluorescence imaging; system = peptide, BALB/c mice, 4T1 tumour-bearing, 4T1 tumour; conditions = intravenous, 5 nmol, 48 h post-injection; how to read = higher = more uptake; measurement = mean fluorescence intensity; value = 1230 ± 282 a.u.
Molecule = human ME2 E59N; assay = enzyme activity, substrate; system = recombinant enzyme; conditions = pH 7.4, added: fumarate 3 mM; measurement = K0.5; value = 23.3 ± 1.58 mM
Molecule = insulin degludec; system = human; conditions = subcutaneous, 0.4 IU/kg, 1 FC level, single dose, reference formulation; measurement = Tmax, median; value = 10 h
Molecule = human ME2 I58F; assay = enzyme activity, substrate; system = recombinant enzyme; conditions = pH 7.4, added: no fumarate; measurement = K0.5; value = 7.69 ± 0.32 mM
Molecule = insulin icodec; system = Japanese patients with type 1 diabetes, serum; conditions = geometric mean; measurement = half-life at steady state; value = 164 h
Molecule = human ME2 R91A; assay = enzyme activity, substrate; system = recombinant enzyme; conditions = pH 7.4, added: fumarate 3 mM; measurement = K0.5; value = 2.43 ± 0.26 mM
Molecule = insulin icodec; system = Chinese type 2 diabetes patients; conditions = subcutaneous; how to read = reference: steady state over first dose; measurement = accumulation ratio for Cmax; value = 2.09
